Published values of several laboratories.
Lines come from different studies, so protocols differ. Converted amounts (≈) assume the structure as drawn.
UniProt Q9UBF8, sequence (whole entry, looked up): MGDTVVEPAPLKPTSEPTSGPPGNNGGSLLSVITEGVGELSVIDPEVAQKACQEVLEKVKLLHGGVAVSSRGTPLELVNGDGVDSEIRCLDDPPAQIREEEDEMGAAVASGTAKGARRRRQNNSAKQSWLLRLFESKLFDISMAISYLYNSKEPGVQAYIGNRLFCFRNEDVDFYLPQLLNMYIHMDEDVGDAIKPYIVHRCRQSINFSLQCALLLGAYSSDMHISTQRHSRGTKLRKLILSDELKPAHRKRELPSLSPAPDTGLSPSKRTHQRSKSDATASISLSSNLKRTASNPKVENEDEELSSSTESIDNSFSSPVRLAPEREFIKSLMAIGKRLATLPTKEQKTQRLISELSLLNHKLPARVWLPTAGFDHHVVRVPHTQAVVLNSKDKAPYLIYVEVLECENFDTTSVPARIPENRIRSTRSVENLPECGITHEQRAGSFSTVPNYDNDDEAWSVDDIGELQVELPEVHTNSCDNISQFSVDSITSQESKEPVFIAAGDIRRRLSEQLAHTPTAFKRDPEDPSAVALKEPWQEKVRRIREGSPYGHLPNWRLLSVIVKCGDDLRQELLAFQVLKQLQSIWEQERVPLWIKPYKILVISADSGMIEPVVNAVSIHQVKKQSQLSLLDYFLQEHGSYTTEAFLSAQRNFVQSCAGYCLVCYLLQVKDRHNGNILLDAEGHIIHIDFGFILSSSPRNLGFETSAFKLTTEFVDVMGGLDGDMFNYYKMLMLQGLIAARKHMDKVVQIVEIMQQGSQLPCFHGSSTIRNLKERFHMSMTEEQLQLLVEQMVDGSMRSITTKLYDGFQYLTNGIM
UniProt Q86UE8, sequence (whole entry, looked up): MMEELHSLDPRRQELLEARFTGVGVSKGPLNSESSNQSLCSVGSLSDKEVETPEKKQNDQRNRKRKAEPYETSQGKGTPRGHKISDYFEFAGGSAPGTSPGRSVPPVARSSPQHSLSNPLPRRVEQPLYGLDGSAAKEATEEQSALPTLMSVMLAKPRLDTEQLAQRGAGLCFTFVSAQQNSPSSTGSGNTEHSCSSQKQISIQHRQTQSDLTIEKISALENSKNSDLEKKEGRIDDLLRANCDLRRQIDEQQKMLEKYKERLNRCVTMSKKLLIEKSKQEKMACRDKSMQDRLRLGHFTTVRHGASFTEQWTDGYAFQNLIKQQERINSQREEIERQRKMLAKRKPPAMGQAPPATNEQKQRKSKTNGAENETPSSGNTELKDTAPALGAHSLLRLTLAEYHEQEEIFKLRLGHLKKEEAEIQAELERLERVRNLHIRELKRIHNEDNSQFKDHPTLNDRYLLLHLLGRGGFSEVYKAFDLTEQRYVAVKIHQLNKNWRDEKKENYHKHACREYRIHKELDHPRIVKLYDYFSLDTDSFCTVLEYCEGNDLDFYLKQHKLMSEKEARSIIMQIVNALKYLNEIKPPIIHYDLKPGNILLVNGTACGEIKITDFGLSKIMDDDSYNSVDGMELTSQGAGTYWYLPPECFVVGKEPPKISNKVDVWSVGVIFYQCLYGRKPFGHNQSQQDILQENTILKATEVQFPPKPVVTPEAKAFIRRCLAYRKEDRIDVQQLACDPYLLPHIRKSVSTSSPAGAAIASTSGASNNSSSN
UniProt Q9BQI3, sequence (whole entry, looked up): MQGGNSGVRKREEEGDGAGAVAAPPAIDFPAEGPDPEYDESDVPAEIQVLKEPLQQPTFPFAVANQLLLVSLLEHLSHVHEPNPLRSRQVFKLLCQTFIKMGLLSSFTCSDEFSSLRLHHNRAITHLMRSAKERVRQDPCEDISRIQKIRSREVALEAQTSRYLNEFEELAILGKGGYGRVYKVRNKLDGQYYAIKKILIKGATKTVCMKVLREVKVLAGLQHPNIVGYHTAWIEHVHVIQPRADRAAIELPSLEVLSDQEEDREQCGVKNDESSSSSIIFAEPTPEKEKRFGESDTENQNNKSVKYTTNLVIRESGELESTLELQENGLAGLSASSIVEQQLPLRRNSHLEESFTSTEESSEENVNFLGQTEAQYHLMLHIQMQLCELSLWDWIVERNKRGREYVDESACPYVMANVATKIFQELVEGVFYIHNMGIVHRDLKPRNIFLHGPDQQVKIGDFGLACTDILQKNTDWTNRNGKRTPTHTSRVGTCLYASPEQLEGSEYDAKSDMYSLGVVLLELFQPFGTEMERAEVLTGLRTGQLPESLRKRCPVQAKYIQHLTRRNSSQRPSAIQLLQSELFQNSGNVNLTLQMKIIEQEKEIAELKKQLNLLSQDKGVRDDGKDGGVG
UniProt Q9H093, sequence (whole entry, looked up): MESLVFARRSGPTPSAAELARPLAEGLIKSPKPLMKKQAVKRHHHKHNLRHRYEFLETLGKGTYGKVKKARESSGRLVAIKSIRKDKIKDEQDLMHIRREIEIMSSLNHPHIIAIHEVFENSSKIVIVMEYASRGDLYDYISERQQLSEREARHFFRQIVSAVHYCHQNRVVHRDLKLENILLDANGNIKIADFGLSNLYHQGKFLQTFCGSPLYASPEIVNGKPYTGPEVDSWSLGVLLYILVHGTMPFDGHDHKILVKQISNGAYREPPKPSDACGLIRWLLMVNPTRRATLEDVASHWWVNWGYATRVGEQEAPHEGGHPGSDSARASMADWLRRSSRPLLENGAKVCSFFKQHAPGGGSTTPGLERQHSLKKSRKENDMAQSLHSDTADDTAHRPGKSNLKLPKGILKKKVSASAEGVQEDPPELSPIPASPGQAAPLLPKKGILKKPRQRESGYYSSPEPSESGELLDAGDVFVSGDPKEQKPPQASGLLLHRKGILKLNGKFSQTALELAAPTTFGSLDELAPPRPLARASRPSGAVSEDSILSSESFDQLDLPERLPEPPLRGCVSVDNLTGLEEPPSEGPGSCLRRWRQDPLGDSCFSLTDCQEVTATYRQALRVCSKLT

For CCC[C@@](N)(CO)CCc1ccc(OCCCCCC(C)C)cc1, the Cmax was 105 nM (dog, plasma; oral, 2.5 mg/kg, solution).
CC(C)C[C@H]1C(=O)N[C@@H](C)C(=O)N[C@@H](CO)C(=O)N[C@@H](C(C)C)C(=O)N(C)[C@@H](CC(C)C)C(=O)N[C@H](C)C(=O)N[C@H](C(C)C)C(=O)N2CCC[C@@H]2C(=O)N[C@H](Cc2ccc(O)cc2)C(=O)NCC(=O)N1C has a thermodynamic solubility of 813 µM (≈ 812 µg/mL) (aqueous buffer; 18 h, pH 7.4).
CC(C)CC(=O)OC[C@H]1O[C@@](C#N)(c2ccc3c(N)ncnn23)[C@H](O)[C@@H]1O gave a hepatocyte CLint of greater than 318 µL/min/10⁶ cells (metabolic stability; monkey, hepatocytes; 5 µM).
With [2H]c1c([2H])c([C@]2([2H])CCCN2C(=O)C(C)(C)Oc2ccc3cn[nH]c3c2)c([2H])c([2H])c1C([2H])([2H])[2H] the remaining binding was 92% (Phosphatidylinositol 4-kinase beta (PI4KB, Homo sapiens, UniProt Q9UBF8); binding, competition with immobilised ligand; 1 µM).
For N.N.[Cl][Pt][Cl], the inhibition was 100% (KARPAS-422; cell growth or viability, ATP luminescence; 10 µM, 72 h).
With CC(C)C[C@H](NC(=O)[C@H](Cc1ccccc1)NC(=O)[C@H](Cc1ccccc1)NC(=O)Cc1ccc(-c2ccccc2)cc1)C(=O)N[C@@H](CCCCN)C(=O)N[C@@H](CCCNC(=N)N)C(=O)N[C@H](C(=O)N[C@@H](Cc1c[nH]c2ccccc12)C(=O)N[C@@H](CCCCN)C(=O)N[C@@H](CCCNC(=N)N)C(=O)O)C(C)C the compound remaining was 17.3% (metabolic stability; monkey, liver microsomes; 15 min).
With CC(C)(N)CNC(=O)O[C@H]1CCC[C@@]2(C1)OOC1(O2)C2CC3CC(C2)CC1C3 (stereo partly drawn) the Tmax was 2 h (male CD-1 mouse, plasma; oral, 10 mg/kg).
For N=c1c2c(-c3ccccc3)c(-c3ccccc3)n(Cc3ccccc3)c2ncn1[C@H]1CC[C@H](O)CC1, the half-life was 48.6 h (male cynomolgus monkey, plasma; oral, 1 mg/kg, single dose).
For CNC(=O)[C@@H](NC(=O)c1cc(OCC2(C)COC2)c(C2CC2)cn1)C(C)(C)C, the Vd was 3.1 L/kg (C57BL/6 mouse, plasma; intravenous).
CCCC[C@@H]1NC(=O)[C@H](Cc2ccc(O)cc2)NC(=O)[C@@H]2CCCN2C(=O)[C@H](CC(=O)O)NC(=O)[C@H](C)NC(=O)[C@H](Cc2ccccc2)NC(=O)[C@@H]2CSCCC(=O)N3CN(CN(C3)C(=O)CCSC[C@@H](C(N)=O)NC1=O)C(=O)CCSCCC(=O)N[C@@H](CC(C)(C)C)C(=O)N1CCC[C@H]1C(=O)N[C@@H](CCC(=O)O)C(=O)N[C@H](CCCCNC(=O)CCc1cn(CCOCCOCCOCCN(CCOCCOCCOCCC(=O)N[C@H]3CSCCC(=O)N4CN5CN(C4)C(=O)CCSC[C@H](NC(=O)[C@@H](CC(=O)O)NC(=O)[C@H](Cc4cccc6ccccc46)NC(=O)[C@@H]4CCCN4C3=O)C(=O)N[C@@H](CCSC)C(=O)N[C@@H](CCCCNC(=N)N)C(=O)N[C@@H](CC(=O)O)C(=O)N[C@@H](Cc3c[nH]c4ccccc34)C(=O)N[C@@H](CO)C(=O)N[C@@H]([C@@H](C)O)C(=O)N3CCC[C@H]3C(=O)N3C[C@H](O)C[C@H]3C(=O)N[C@@H](Cc3c[nH]c4ccccc34)C(=O)N[C@H](C(N)=O)CSCCC5=O)CCOCCOCCOCCn3cc(CCC(=O)NCCCC[C@H]4NC(=O)[C@H](CCC(=O)O)NC(=O)[C@@H]5CCCN5C(=O)[C@H](CC(C)(C)C)NC(=O)CCSCCC(=O)N5CN6CN(C5)C(=O)CCSC[C@H](NC(=O)[C@H](Cc5ccc(O)cc5)NC(=O)[C@@H]5CCCN5C4=O)C(=O)N[C@@H](Cc4ccccc4)C(=O)N[C@@H](C)C(=O)N[C@@H](CC(=O)O)C(=O)N4CCC[C@H]4C(=O)N[C@@H](Cc4ccc(O)cc4)C(=O)N[C@@H](CCCC)C(=O)N[C@H](C(N)=O)CSCCC6=O)nn3)nn1)C(=O)N1CCC[C@H]1C(=O)N[C@@H](Cc1ccc(O)cc1)C(=O)N2 has a Vd of 4.8 L/kg (rat, plasma; intravenous, 2 mg/kg).
COc1ncccc1-c1cnn2ccc(N3CCN(C(=O)OC(C)C)CC3)nc12 gave a remaining binding of 100% (Eukaryotic translation initiation factor 2-alpha kinase 1 (EIF2AK1, Homo sapiens, UniProt Q9BQI3); binding, competition with immobilised ligand; 1 µM).
The thermodynamic solubility of CC(C)C[C@@H]1NC(=O)[C@H](CCCNC(=N)N)NC(=O)[C@H]2CCCN2C(=O)[C@@H](N)CSSC[C@@H](C(=O)O)NC(=O)[C@@H]2CCCN2C(=O)[C@H](Cc2ccccc2)NC(=O)[C@H](CC(C)C)NC(=O)[C@H]([C@@H](C)O)NC(=O)[C@H](C(C)C)NC1=O is reported as 872 µM (≈ 1000 µg/mL) (aqueous buffer; 18 h, pH 7.4).
For Cc1nn(C)cc1-c1nc2c(N3CCN(Cc4ccc(Cl)cc4)CC3)c(Cl)cnc2[nH]1, the remaining binding was 92% (Serine/threonine-protein kinase tousled-like 2 (TLK2, Homo sapiens, UniProt Q86UE8); binding, competition with immobilised ligand; 1 µM).
Nc1ncc(-c2nc(N3CCOCC3)nc(N3CCOCC3)n2)c(C(F)F)n1 has a remaining binding of 50% (NUAK family SNF1-like kinase 2 (NUAK2, Homo sapiens, UniProt Q9H093); binding, competition with immobilised ligand; 10 µM).
CC[C@H](C)[C@H]1C(=O)N[C@@H](CC(C)C)C(=O)N2CCC[C@H]2C(=O)N2CCC[C@@H]2C(=O)NCC(=O)N[C@@H](CC(C)C)C(=O)N[C@@H](CC(C)C)C(=O)N[C@@H](C)C(=O)N[C@@H](CO)C(=O)N[C@H]([C@H](C)O)C(=O)N[C@H](Cc2ccc(O)cc2)C(=O)N1C has a thermodynamic solubility of 767 µM (≈ 875 µg/mL) (aqueous buffer; 18 h, pH 7.4).

Repeated from above:
CCCC[C@@H]1NC(=O)[C@H](Cc2ccc(O)cc2)NC(=O)[C@@H]2CCCN2C(=O)[C@H](CC(=O)O)NC(=O)[C@H](C)NC(=O)[C@H](Cc2ccccc2)NC(=O)[C@@H]2CSCCC(=O)N3CN(CN(C3)C(=O)CCSC[C@@H](C(N)=O)NC1=O)C(=O)CCSCCC(=O)N[C@@H](CC(C)(C)C)C(=O)N1CCC[C@H]1C(=O)N[C@@H](CCC(=O)O)C(=O)N[C@H](CCCCNC(=O)CCc1cn(CCOCCOCCOCCN(CCOCCOCCOCCC(=O)N[C@H]3CSCCC(=O)N4CN5CN(C4)C(=O)CCSC[C@H](NC(=O)[C@@H](CC(=O)O)NC(=O)[C@H](Cc4cccc6ccccc46)NC(=O)[C@@H]4CCCN4C3=O)C(=O)N[C@@H](CCSC)C(=O)N[C@@H](CCCCNC(=N)N)C(=O)N[C@@H](CC(=O)O)C(=O)N[C@@H](Cc3c[nH]c4ccccc34)C(=O)N[C@@H](CO)C(=O)N[C@@H]([C@@H](C)O)C(=O)N3CCC[C@H]3C(=O)N3C[C@H](O)C[C@H]3C(=O)N[C@@H](Cc3c[nH]c4ccccc34)C(=O)N[C@H](C(N)=O)CSCCC5=O)CCOCCOCCOCCn3cc(CCC(=O)NCCCC[C@H]4NC(=O)[C@H](CCC(=O)O)NC(=O)[C@@H]5CCCN5C(=O)[C@H](CC(C)(C)C)NC(=O)CCSCCC(=O)N5CN6CN(C5)C(=O)CCSC[C@H](NC(=O)[C@H](Cc5ccc(O)cc5)NC(=O)[C@@H]5CCCN5C4=O)C(=O)N[C@@H](Cc4ccccc4)C(=O)N[C@@H](C)C(=O)N[C@@H](CC(=O)O)C(=O)N4CCC[C@H]4C(=O)N[C@@H](Cc4ccc(O)cc4)C(=O)N[C@@H](CCCC)C(=O)N[C@H](C(N)=O)CSCCC6=O)nn3)nn1)C(=O)N1CCC[C@H]1C(=O)N[C@@H](Cc1ccc(O)cc1)C(=O)N2 has a Vd of 4.8 L/kg (rat, plasma; intravenous, 2 mg/kg).
COc1ncccc1-c1cnn2ccc(N3CCN(C(=O)OC(C)C)CC3)nc12 gave a remaining binding of 100% (Eukaryotic translation initiation factor 2-alpha kinase 1 (EIF2AK1, Homo sapiens, UniProt Q9BQI3); binding, competition with immobilised ligand; 1 µM).
